Published values collected from several papers.
Each numbered part is a random draw from the data of one study; scales do not carry over between parts.

Block 1
Target: Ras GTPase-activating protein-binding protein 1, full length (G3BP1, Homo sapiens, UniProt Q13283)
Chain of UniProt Q13283 (whole entry, looked up): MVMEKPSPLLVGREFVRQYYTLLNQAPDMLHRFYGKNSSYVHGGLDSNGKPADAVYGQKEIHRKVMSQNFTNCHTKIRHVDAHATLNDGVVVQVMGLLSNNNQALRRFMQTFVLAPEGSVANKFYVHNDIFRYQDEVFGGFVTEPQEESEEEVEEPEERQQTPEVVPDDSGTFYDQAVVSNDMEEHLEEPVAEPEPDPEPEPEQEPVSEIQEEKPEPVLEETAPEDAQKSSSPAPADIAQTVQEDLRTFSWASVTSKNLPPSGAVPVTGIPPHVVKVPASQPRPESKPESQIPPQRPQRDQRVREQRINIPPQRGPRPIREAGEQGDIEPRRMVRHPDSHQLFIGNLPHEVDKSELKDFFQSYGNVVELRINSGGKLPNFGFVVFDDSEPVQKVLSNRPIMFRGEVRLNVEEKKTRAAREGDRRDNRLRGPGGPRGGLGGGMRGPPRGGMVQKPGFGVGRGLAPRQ
Method: RNA Bind-n-Seq
Molecule type: RNA
Medium: in vitro
Concentration: 200 nM
Setting: whole 134-nt RNA, ends assumed
With: 150 mM KCl
Relative to: input library
Reading: higher = stronger binding
All sequences stand within: GGGAGUUCUACAGUCCGACGAUC … UGGAAUUCUCGGGUGUCAAGG
Strand | log2 enrichment
UGGGAGGUGGAUUUUGUUUAUUUUUUUAGCUAAUUUCCAGGGGUGGGAAUUUUUUUUUAAUAUGUGUCAUGAAUAAAGUUGUUUUUGAAA | -0.0122
GUCCUGUGCUACACAUCGUAUGUACCGAAUCAAACCCCCAAAUUUUUUUAAACCCAAAAAAGUAUUAUGUUACGCCGUUCGGAUCUGCAC | -0.00614
GUCCUGUGCUACACAUCGUAUGUACCGAAUCGGGGAAAAAAAGGGGUGGGGUUUGGGGAAAGUAUUAUGUUACGCCGUUCGGAUCUGCAC | 0.19
GCAGGAAGUAAAACCAAAUGGAAAUGCUUCGGAUAGUGGCAGGGGUGGGGGUUGCUAAGGAAAGGGUGGGAUGGGAGUGGGUAAAGAGUU | 1.51
UGGCCCUGGUGGCAUGCGGGGAGGAAGAGGUGGCCUCAUGGAUCGUGGUGGUCCCGGUGGAAUGUUCAGAGGUGGCCGUGGUGGAGACGG | 0.243
CUGUGCUACACAUCGUAUGUACCGAAUCGGGGAAAGGGGAAAAAAAGGGGAAAAAAAGGGGAAAGUAUUAUGUUACGCCGUUCGGAUCUG | -0.136
ACCAUGCAGGUGGGCAUCUUUGGGAAGUGGGGCAAGGGGGAGAUAGGGAGGGGGGUAACACUUUGGGAACAGGUGGUCCCAGGUCGUUUC | 1.23
CACAGACAACACGCACCCACACAGACACAGAGGGAAGGGGUUGGGAUGGGGACAGGGUGCACAGCAGAAAGGGGUAGGACCCCAGCCCCU | 1.86
UGGCCCUGGUGGCAUGCGGGGAGGAAGAGGUGGCCUCAUGGAUCGUGGUGGUCCCGGUGGAAUGUUCAGAGGUGGCCGUGGUGGAGAUAG | 0.336
GCAGGAAGUAAAAACAAAUGGAAAUGCUUCGGAUAGUGGCAGGGGUGGGGGUUGCUAAGGAAAGGCUGGGAUGGGAGUGGGUAAAGAGUU | 0.859
CAAGUCCUGUGCUACACAUCGUAUGUACCGAAUCGGGGUUUGGUUUGGGGUUUGGGAAAGUAUUAUGUUACGCCGUUCGGAUCUGCACUU | 0.206
UGUUGGAGGGACGAUGGUCCGCUCCGGGCAGGACCCUUACGCCCGCAACAAGUUCAACCAGGUGGAGAGUGAUAAGCUUCGAAUGGACAG | -1.68
UGGCCCUGGUGGUAUGCGGGGAGGAAGAGGUGGCCUCAUGGAUCGUGGUGGUCCCGGUGGAAUGUUCAGAGGUGGCCGUGGUGGAGACAG | 0.124
UCAAGUCCUGUGCUACACAUCGUAUGUACCGAAUCGGAAAAAAAGGUGGUUUGGAAAGUAUUAUGUUACGCCGUUCGGAUCUGCACUUCC | -1.16

Block 2
Target: RNA binding protein fox-1 homolog 2, RRM domain, GST-SBP tag (RBFOX2, Homo sapiens, UniProt O43251-10, residues 100-194)
Method: RNA Bind-n-Seq
Molecule type: RNA
Medium: in vitro
Concentration: 365 nM
Setting: natural RNA segment, single round, ends assumed
Relative to: no-protein control
Reading: higher = stronger binding
All sequences stand within: GGGAGUUCUACAGUCCGACGAUC … UGGAAUUCUCGGGUGCCAA
Construct (chain): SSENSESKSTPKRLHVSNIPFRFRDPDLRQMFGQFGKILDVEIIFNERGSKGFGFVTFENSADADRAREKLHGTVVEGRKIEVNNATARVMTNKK
Strand | RBNS enrichment (R)
CGGCCCUGCUCGAUGCAGGGUCUGCAGUGGCCUGAGGGCAGCCAGGCACUGCAUGCCUGUCUCCUUAUGAGGAAGGCUGCAAAUUUCAGAGAAAGGGAGGUGAGGUUUCC | 0.453
UUCAGGGAGAUGGGGGCACUAUGGUUGCCCAAGACCAUAAACCCUCUUGUAGUCAGGCAGUAUAGUGUAGCAGGGCAAUCUGUCUGACACCUAAAUGGACUUGAAAUUGA | 0.576
UUGCAGCCCACGGUGCACAUCUGCGCACACCCUCACUGAGGACUGAGUGCUGUUGGUACACGGAGCCCCCUCCUCCAUACCCAUUGCUGCACCACCACUGUGGAUUGCAC | 0.357
CAAAUGUCAAUCUUUAUUAGAAAGCAUUUUCUAGGUGUGUUUAGUGUGCAAAGAAACUUUCUAACCCUUACCGGACACCGCACAGCUUCCUGCACUCAAGCCGCAGGGUA | 0.368
AGAGUGGAACCCGCUGCAAAAUCCCCAGCCUUAAUUCUUGCUUCAGGACCCAGACCGGUGUCUUGCUCUAGGGCAACCCAGGGCAGAGGGGCCAGGUCUGCCCAGCGUUU | 0.199
ACAAGGUGAUCGAAGGCCUGGACACGGGCCUGCAGGGCAUGUGUGUGGGAGAGAGGCGGCAGCUCAUCGUGCCCCCGCACCUGGCCCACGGGGAGAGUGGAGGCCGGGGA | 0.492
UCUGCAAGGCCCUUGUGGGCACGAGAGUGCGGCCCUUGCUGCUGGAGAUCUGAGGUCACUGCUGUGAGCUGGGAGAACUGCUGUGUACCUCUUGCUGCCAGCACCCAACA | 0.897
ACCUGGGGGUACCCGCAUCCACUUCCUUUCCCCCUUUUAACAAAAGAGAAGAACGAAUUCCAAACCAUGCCAGGCUCUGUGGUCUUACCUUGUAUACGAGGCUUGCUGCC | 1.73
UAUUUCUAUGCUUAAAAUUCUCUUUCCUAGUCAAAAAUUGCCCAAAUCUGUGUUUGCUUUCUGCUUGCUACAUUUGUCUCCCUUACUUUUCUUGAGCUAAAGACAGGCUU | 1.33
UCUAUUGCUCAACAGUCCCUGUCAUCCUUAAGUGACUUCUGGGUUUCCCACAAAUUCCUCACUUUUAGACACACUCUAAGCUUACUUCUGGCCUGGAUGCUUCCUCUCCC | 0.295
GAAACAGGAAGAAGUAUGGUGGGGGCUGGGGUAGACUCCCCUGGAGCCAAGCCUAUCCAGCUAACAAGAGCUCCCUGGGGCUGGUCACAGCUGGCUCAUGAUGCUGAACU | 0.805
UUAAUCUGCUAUGAAUCAGUACCCAGAUGUUUAAUUACUGUACUUAUUAAAUCAUGAGGGCAAAAGAGUGUAGAAUGGAAAAAAGUCUCUUGUAUCUAGAUACUUUAAAU | 0.37

Block 3
Target: Histone acetyltransferase KAT6A, winged helix 2, GST fusion (KAT6A, Homo sapiens, UniProt Q92794, residues 85-181)
Method: protein binding microarray
Molecule type: double-stranded DNA, one strand shown
Medium: in vitro
Concentration: not given
Setting: 8-mer, flanks averaged, mean of 2 arrays, mostly near background
Relative to: not given
Reading: higher = stronger binding
Construct (chain): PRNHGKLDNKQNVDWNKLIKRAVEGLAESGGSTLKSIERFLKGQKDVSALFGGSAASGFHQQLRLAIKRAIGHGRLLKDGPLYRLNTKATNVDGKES
Strand | E-score
GACGTGAC | -0.126
TGTACAAA | 0.0528
ACCTCCAT | -0.178
ACATTGTC | -0.0528
GTGCAGAA | -0.0205
CGGGCACC | 0.177
ATCCTTTC | -0.00987
GATTGCGC | 0.156
GGACGCTA | -0.0424
GACTAAGA | 0.157
CGTTGCAG | -0.163
TTCTTAAA | -0.0214
AATCCACG | 0.0635
AGGGGCTG | 0.0474
CAACATCG | 0.0719
ACATTTAA | 0.0507
CGTAATCC | -0.0585
TCTGCAAA | 0.0419
TAGATCTA | -0.0135
CCAGGCCG | 0.16
CCCATAGC | -0.0782
AAAGGGTG | -0.041
AGTCCAGA | 0.0163
CTTCAATC | -0.00675

Block 4
Target: Interferon regulatory factor 3, full length, phosphomimetic (IRF3, Homo sapiens, UniProt Q14653, residues 1-427, S386D/S396D/S398D/S402D/T404D/S405D)
Chain of UniProt Q14653 (whole entry, unmodified, looked up): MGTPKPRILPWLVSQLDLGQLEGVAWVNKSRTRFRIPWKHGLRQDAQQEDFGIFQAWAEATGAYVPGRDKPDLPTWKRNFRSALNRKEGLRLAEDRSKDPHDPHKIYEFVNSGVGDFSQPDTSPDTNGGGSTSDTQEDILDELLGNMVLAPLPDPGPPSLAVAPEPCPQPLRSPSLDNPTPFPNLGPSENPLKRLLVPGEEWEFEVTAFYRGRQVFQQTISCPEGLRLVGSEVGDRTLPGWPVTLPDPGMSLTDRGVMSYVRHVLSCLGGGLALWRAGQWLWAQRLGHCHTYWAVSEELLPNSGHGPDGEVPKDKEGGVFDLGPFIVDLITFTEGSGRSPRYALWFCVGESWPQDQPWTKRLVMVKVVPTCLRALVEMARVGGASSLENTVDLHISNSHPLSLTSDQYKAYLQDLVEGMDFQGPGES
Method: protein-binding microarray
Molecule type: double-stranded DNA, one strand shown
Medium: in vitro
Concentration: 2540 nM top
Setting: 60-bp whole probe
With: salmon DNA 0.4 mg/ml
Relative to: random background probes
Reading: higher = stronger binding
All sequences stand within: GCCTAGCAC … GTCTTGATTCGCTTGACGCTGCTG
Strand | fitted relative affinity [z-score]
TTTGGTCTCGGTTTCGGTTAGTGCTAG | 5.41
TTAGATTTAAGTATCGATTAGTGCTAG | 0.543
TCACCACTCCAGTTCTGACTGTGCTAG | 0.292
TTAGGTTTCTTTTTCCTTTAGTGCTAG | 5.88
GAATATATGTATATATGTGTGTGCTAG | 0.135
GGCCCTTTGCTTTCCTGATGGTGCTAG | 0.635
AGCCTGGCCAAGCTCACAGCGTGCTAG | -1.51
GTATGACTCTGCCTCTAACTGTGCTAG | -0.51
GCTCATTTTTTTTGCAAGCTGTGCTAG | 1.05
GACGATTTCGGGTATCTAGACGTGCTA | 1.79
TCATTATTTATTTTTACACTGTGCTAG | 1
GAATTTCCCACTTTCAGTTCGTGCTAG | 3.9
TCAAATCTCTCTTCACAACTGTGCTAG | 0.659
GACGATCTGAGTATCGAGACGTGCTAG | 0.212
TACAGGATGGTTTTCAGAGAGTGCTAG | 0.0206
GGCGATTCCAGTTTCGAGACGTGCTAG | 2.96
TTAGATATCTGTCTCGATTAGTGCTAG | 0.622
TTAGGACTGGACATTGGGTTAGTGCTA | -0.858
GACGAACTGAGTTCCGAGACGTGCTAG | 0.113
TCAGCTCTTTCGTTACTTACTGTGCTA | 1.74
TTAGGATTCGGTTCCGGTTAGTGCTAG | 5.96
TCACCTCACAGTTTGTAACTGTGCTAG | 0.292
GACGAACTGAGTCTCGACACGTGCTAG | -0.209
TTCTACTTCTGTTTTTGCTTGTGCTAG | 1.99
TTAGGTTTCGGGTTTCCGTTAGTGCTA | 5.96

Block 5
Target: Sal-like protein 4, full length isoform A (SALL4, Homo sapiens, UniProt Q9UJQ4, residues 1-1053)
Chain of UniProt Q9UJQ4 (whole entry, looked up): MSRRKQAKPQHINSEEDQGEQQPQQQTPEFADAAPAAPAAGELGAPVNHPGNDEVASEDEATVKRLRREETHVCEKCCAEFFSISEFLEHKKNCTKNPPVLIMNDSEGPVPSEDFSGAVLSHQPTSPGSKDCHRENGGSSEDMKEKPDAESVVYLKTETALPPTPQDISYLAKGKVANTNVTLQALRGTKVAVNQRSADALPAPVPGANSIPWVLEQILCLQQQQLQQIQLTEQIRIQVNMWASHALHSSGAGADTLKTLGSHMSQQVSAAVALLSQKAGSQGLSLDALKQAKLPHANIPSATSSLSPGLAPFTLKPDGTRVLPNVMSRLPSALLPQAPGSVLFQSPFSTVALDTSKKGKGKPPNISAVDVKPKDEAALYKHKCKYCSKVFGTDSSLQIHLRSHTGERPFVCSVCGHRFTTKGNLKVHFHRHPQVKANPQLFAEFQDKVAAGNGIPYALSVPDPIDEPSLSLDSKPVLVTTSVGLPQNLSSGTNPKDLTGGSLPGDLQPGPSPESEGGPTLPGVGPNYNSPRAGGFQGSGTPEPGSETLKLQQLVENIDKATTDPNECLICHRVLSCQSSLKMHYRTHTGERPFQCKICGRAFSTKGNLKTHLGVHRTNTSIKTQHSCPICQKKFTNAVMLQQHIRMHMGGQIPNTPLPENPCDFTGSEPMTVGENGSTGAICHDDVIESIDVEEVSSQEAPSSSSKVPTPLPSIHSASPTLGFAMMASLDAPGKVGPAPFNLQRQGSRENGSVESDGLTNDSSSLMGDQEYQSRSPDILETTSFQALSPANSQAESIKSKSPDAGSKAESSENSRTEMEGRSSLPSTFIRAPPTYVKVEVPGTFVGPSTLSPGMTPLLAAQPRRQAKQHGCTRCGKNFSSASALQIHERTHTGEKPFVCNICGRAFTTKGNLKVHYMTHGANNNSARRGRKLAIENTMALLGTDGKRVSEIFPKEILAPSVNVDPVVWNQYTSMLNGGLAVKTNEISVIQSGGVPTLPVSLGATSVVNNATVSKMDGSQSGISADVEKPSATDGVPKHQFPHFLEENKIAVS
Method: universal PBM
Molecule type: double-stranded DNA, one strand shown
Medium: in vitro
Concentration: 600 nM
Setting: 8-mer, flanks averaged, mean of replicates
Reading: higher = stronger binding
Strand | E-score
AAAAGAGG | 0.0462
TACGGCCA | -0.158
ACACGCAT | 0.0925
CTGCTTAC | -0.0863
GCCTGGAC | -0.234
CTCACCGA | -0.0992
AGGCGTAA | -0.0422
CACGCACA | 0.039
AGAAGTAA | 0.255
ACCATAGT | 0.0898
GAGTTGAC | -0.111
ACGGTTCG | -0.217
ACAGTCCA | -0.0551
AGCCGTTC | -0.336
AGTAGTAG | 0.0889
GGGTCGGA | -0.261
AACTCGCG | -0.149
GGGGCACA | -0.0893
ATTTGAGC | 0.0755
CTGGGCGA | -0.235
CACGGGGA | -0.325
ATATTCCC | 0.199
AACCAGCG | -0.228
AGCTGAGC | -0.329
ATGCTCAG | 0.0429

A few entries again (block 1):
Strand | log2 enrichment
ACCAUGCAGGUGGGCAUCUUUGGGAAGUGGGGCAAGGGGGAGAUAGGGAGGGGGGUAACACUUUGGGAACAGGUGGUCCCAGGUCGUUUC | 1.23
CUGUGCUACACAUCGUAUGUACCGAAUCGGGGAAAGGGGAAAAAAAGGGGAAAAAAAGGGGAAAGUAUUAUGUUACGCCGUUCGGAUCUG | -0.136
CAAGUCCUGUGCUACACAUCGUAUGUACCGAAUCGGGGUUUGGUUUGGGGUUUGGGAAAGUAUUAUGUUACGCCGUUCGGAUCUGCACUU | 0.206
GCAGGAAGUAAAACCAAAUGGAAAUGCUUCGGAUAGUGGCAGGGGUGGGGGUUGCUAAGGAAAGGGUGGGAUGGGAGUGGGUAAAGAGUU | 1.51
GCAGGAAGUAAAAACAAAUGGAAAUGCUUCGGAUAGUGGCAGGGGUGGGGGUUGCUAAGGAAAGGCUGGGAUGGGAGUGGGUAAAGAGUU | 0.859
UGGCCCUGGUGGCAUGCGGGGAGGAAGAGGUGGCCUCAUGGAUCGUGGUGGUCCCGGUGGAAUGUUCAGAGGUGGCCGUGGUGGAGACGG | 0.243
UGGCCCUGGUGGCAUGCGGGGAGGAAGAGGUGGCCUCAUGGAUCGUGGUGGUCCCGGUGGAAUGUUCAGAGGUGGCCGUGGUGGAGAUAG | 0.336
UGGCCCUGGUGGUAUGCGGGGAGGAAGAGGUGGCCUCAUGGAUCGUGGUGGUCCCGGUGGAAUGUUCAGAGGUGGCCGUGGUGGAGACAG | 0.124
CACAGACAACACGCACCCACACAGACACAGAGGGAAGGGGUUGGGAUGGGGACAGGGUGCACAGCAGAAAGGGGUAGGACCCCAGCCCCU | 1.86
UGUUGGAGGGACGAUGGUCCGCUCCGGGCAGGACCCUUACGCCCGCAACAAGUUCAACCAGGUGGAGAGUGAUAAGCUUCGAAUGGACAG | -1.68
